Experimental data from different studies.
Compare with care: the assays were run in different laboratories.
FLT3 D835H: Receptor-type tyrosine-protein kinase FLT3 (FLT3, Homo sapiens, UniProt P36888, D835H)
FLT3: Receptor-type tyrosine-protein kinase FLT3 (FLT3, Homo sapiens, UniProt P36888)
FLT3 D835Y: Receptor-type tyrosine-protein kinase FLT3 (FLT3, Homo sapiens, UniProt P36888, D835Y)

CC(C)=CC1OC(C)(C)C2C=C3C(=O)C(Cl)=CC(O)C3C3C(O)C4OC4C(=O)C132 (centres unmarked) gave a remaining binding of 90% (FLT3 D835H; cell-free assay, competition with immobilised ligand; 10 µM).
Cc1cccc(O[C@H]2CCC[C@@H](C(C)CNCc3ccncc3)C2)c1 (relative stereo) has an inhibition of 4% (FLT3; enzyme activity, inhibitor; 1 µM).
CNC(=O)C1CCN(c2cc(C)c(F)cc2NC(=O)c2ccc(-c3cc(O)ccc3C)c(C)c2)CC1 gave a remaining binding of 100% (FLT3 D835Y; binding, competition with immobilised ligand; 1 µM).
COc1cc(OC)c(F)c(/C=C/c2cnc3ccn(S(=O)(=O)c4cn(CCF)cn4)c3n2)c1F gave an inhibition of 5.6% (FLT3; 1000 nM).
O=C(Nc1ccc(Oc2ncnc3[nH]cc(-c4ccccc4)c23)c(F)c1)c1c2n(n(-c3cc(F)ccc3F)c1=O)CCCC2 has an inhibition of 51% (FLT3; enzyme activity, inhibitor; 0.5 µM).
For C[C@H]1CN(C(=O)c2cn(-c3ccnc(N)n3)c3cc(C#CC4(O)CCCCC4)ccc23)CCN1, the inhibition was 14% (FLT3; enzyme activity, inhibitor, FRET; 1 µM).
The remaining binding of C=CC(=O)N1CCCC(n2c(=O)c3ncccc3n(Cc3ccc(Oc4ccccc4)cc3)c2=O)C1 (centres unmarked) is reported as 94% (Receptor-type tyrosine-protein kinase FLT3 (FLT3, Homo sapiens, UniProt P36888, N841I); cell-free assay, competition with immobilised ligand; 1 µM).
O=C(Cc1ccc(OCc2ccccc2)cc1)NC1(C(=O)O)CCN(C(=O)c2ccc(-c3cccc(Cl)c3)cc2)CC1: “activity vs control” 104% (FLT3; enzyme activity, inhibitor; 10 µM).
Nc1ncc2c(n1)-c1c([nH]c3ccc(C4=CCOCC4)cc13)CCC2 gave a remaining binding of 100% (Receptor-type tyrosine-protein kinase FLT3 (FLT3, Homo sapiens, UniProt P36888, K663Q); binding, competition with immobilised ligand; 1 µM).
For COc1c(OCCCN2CCOCC2)ccc2c1N=C(NC(=O)c1cnc(N)nc1)N1CCN=C21, the remaining activity was 98% (FLT3; kinase activity, inhibitor; 1 µM; baseline: untreated control).
With COCC12C(=O)NC3C4(C(OC)CC1O)C1CC5(O)C(OC)C(O)C(OC(C)=O)(C1C5OC(=O)c1ccccc1)C3(O)C(OC)C24 (centres unmarked) the remaining activity was 107% (FLT3; kinase activity, inhibitor, ProQinase kinase profiling; 25 µM; baseline: control).
With NC(=O)[C@@H](O)C[C@H]1CCc2sc3ncnc(O[C@H]4CC[C@H](N5CCOCC5)CC4)c3c21 the inhibition was 96% (FLT3; enzyme activity, inhibitor; 10 µM).
With O=C=[N][Ru-4]123([n]4c5ccc(O)cc5c5c6c(c7cc(F)c[n+]1c7c54)C(=O)NC6=O)[S+]1CC[S+]2CC[S+]3CC1 (centres unmarked) the remaining activity was 5% (FLT3 D835Y; enzyme activity; 100 nM, human enzyme, together with: 10 µM ATP; baseline: untreated).
For CN1CCN(Cc2ccc(-c3ccc(CO[C@H]4CCC[C@@H]4NC(=O)c4cc(-c5cnn(C)c5)cnc4N)cc3)cc2)CC1, the inhibition was 15% (FLT3; enzyme activity, inhibitor; 0.1 µM).
COc1c(Cl)cccc1Nc1c(-c2ccncc2C#C[C@@]2(C)CCCN2C(=O)/C=C/CN(C)C)[nH]c2c1C(=O)NCC2 gave a remaining binding of 100% (FLT3 D835H; binding, competition with immobilised ligand; 3 µM).
The inhibition of C=CC(=O)Nc1cccc(-c2cnc3[nH]cc(C(=O)NC(C)(C)C)c3n2)c1 is reported as 15% (FLT3; enzyme activity, inhibitor; 0.1 µM).
With Cc1cnc2nc1Nc1cccc(c1)COC/C=C/COCc1cc(ccc1OCCN1CCOCC1)N2 the remaining signal was 7.9% (Receptor-type tyrosine-protein kinase FLT3 (FLT3, Homo sapiens, UniProt P36888, ITD); cell-free assay; 0.1 µM).
